{"data": "Measurements pooled from the literature", "organism": "Schistosoma mansoni", "note": "Each line is one published result; not all experiments were run side by side. Several values in a cell are separate wells, animals, samples, runs or records."}
{"SMILES": "Fc1cc(F)c(-c2c(Cl)nc(-c3cccs3)nc2N2CCCCCC2)c(F)c1", "test": "worm motility", "system": "adult worms ex vivo", "setting": "24 h", "endpoint": "EC50", "result": "2130 nM"}
{"SMILES": "O=C(C1CCSCC1)N1CC(=O)N2CCc3ccccc3[C@@H]2C1", "system": "adult worms", "setting": "4 h", "endpoint": "EC50", "result": "197 nM"}
{"SMILES": "CC1=C(Cn2cc(COC3COC3)nn2)C(=O)c2ccccc2C1=O", "system": "NTS", "scale": "baseline: L6 CC50 over IC50", "endpoint": "selectivity index", "result": 6.6}
{"SMILES": "CS(=O)(=O)CCNc1nc(-c2cccs2)nc(Cl)c1-c1c(F)cc(F)cc1F", "test": "worm motility", "system": "adult worms ex vivo", "setting": "24 h", "endpoint": "EC50", "result": "610 nM"}
{"SMILES": "COc1ccc(Nc2cnnc3cc(-c4cnc(N5CCCN(C)CC5)nc4)ccc23)cc1", "system": "adult worms", "setting": "10 µM, 48 h", "scale": "direction not given", "endpoint": "phenotypic severity score", "result": 4}
{"SMILES": "CC1(C(F)F)NC(=O)N(c2ccc(F)c(C(F)(F)F)c2)C1=O (centres unmarked)", "system": "adult, infected mice", "setting": "oral, 50 mg/kg single dose", "endpoint": "worm burden reduction", "result": "95%"}
{"SMILES": "COc1ccc(Nc2cnnc3ccc(-c4cnc(N5CCCN(C)CC5)nc4)cc23)cc1", "system": "adult worms", "setting": "10 µM, 1 h", "scale": "direction not given", "endpoint": "phenotypic severity score", "result": 0}
{"SMILES": "CC1=C(Cn2cc(C(C)(C)O)nn2)C(=O)c2ccccc2C1=O", "system": "adult worms", "setting": "25 µM, 72 h", "endpoint": "killing", "result": "45.1%"}
{"SMILES": "CC(C)[C@@H](C)Nc1nc(-c2cccs2)nc(Cl)c1-c1c(F)cc(C#N)cc1F", "test": "worm motility", "system": "adult worms ex vivo", "setting": "24 h", "endpoint": "EC50", "result": "1020 nM"}
{"SMILES": "CC1=C(Cn2cc(CN3CCN(C(=O)OC(C)(C)C)CC3)nn2)C(=O)c2ccccc2C1=O", "system": "adult worms", "setting": "10 µM, 24 h", "endpoint": "killing", "result": "41.6%"}
{"SMILES": "Fc1cc(F)c(-c2c(Cl)nc(-c3cccs3)nc2NC2COC2)c(F)c1", "test": "worm motility", "system": "adult worms ex vivo", "setting": "24 h", "endpoint": "EC50", "result": "1820 nM"}
{"SMILES": "O=C(C1CCCCC1)N1CC(=O)N2CCc3ccccc3C2C1 (centres unmarked)", "system": "mice", "setting": "100 mg/kg daily x4, dosed day 7, perfused 49", "endpoint": "male worms recovered", "result": "3 worms per mouse and 8 worms per mouse and 19 worms per mouse and 12 worms per mouse"}
{"SMILES": "CC1(C(F)(F)F)NC(=O)N(c2ccc(F)c(C(F)(F)F)c2)C1=O (centres unmarked)", "system": "NMRI mice, infected", "setting": "oral, 100 mg/kg single dose, 21 days post-treatment, treated day 49 post-infection", "endpoint": "worm burden reduction", "result": "100%"}
{"SMILES": "COc1ccc(Nc2cnnc3ccc(-c4ccc(N5CCN(C)CC5)cc4)cc23)cc1", "system": "adult worms", "setting": "10 µM, 1 h", "scale": "direction not given", "endpoint": "phenotypic severity score", "result": 0}
{"SMILES": "CC1(C)NC(=O)N(c2ccc(F)c(C(F)(F)F)c2F)C1=O", "system": "juvenile, infected mice", "setting": "oral, 100 mg/kg single dose", "endpoint": "worm burden reduction", "result": "23%"}
{"SMILES": "O=C1Nc2ccccc2C2(O)CCN3C12c1ccccc1S3(=O)=O (centres unmarked)", "system": "adult worms", "setting": "ex vivo", "endpoint": "IC50", "result": "3300 nM"}
{"SMILES": "CC1(C)NC(=O)N(c2ccc(F)c(Br)c2)C1=O", "system": "adult, infected mice", "setting": "oral, 50 mg/kg single dose", "endpoint": "worm burden reduction", "result": "50%"}
{"SMILES": "CC1=C(Cc2cn(CCN3CCC(=O)CC3)nn2)C(=O)c2ccccc2C1=O", "system": "adult worms", "setting": "25 µM, 72 h", "endpoint": "killing", "result": "55.5%"}
{"SMILES": "CC1(C)NC(=O)N(c2ccc3c(c2)OC(F)(F)O3)C1=O", "system": "NMRI mice, infected", "setting": "oral, 100 mg/kg single dose, 21 days post-treatment, treated day 49 post-infection", "endpoint": "worm burden reduction", "result": "10%"}
{"SMILES": "CC1(CNc2nc(-c3cccs3)nc(Cl)c2-c2c(F)cc(N)cc2F)COC1", "system": "juvenile", "setting": "1.2 µM, 2 h pulse then washout, 9-day incubation", "scale": "baseline: DMSO control", "endpoint": "motility", "result": "< 25%"}
{"SMILES": "CC1(C)NC(=O)N(c2ccc(F)c(F)c2)C1=O", "system": "NMRI mice, infected", "setting": "oral, 100 mg/kg single dose, 21 days post-treatment, treated day 49 post-infection", "endpoint": "worm burden reduction", "result": "64%"}
{"SMILES": "CC1(CNc2nc(-c3cccs3)nc(Cl)c2-c2c(F)cc([N+](=O)[O-])cc2F)COC1", "test": "motility", "system": "adult worms, ex vivo", "setting": "24 h", "endpoint": "EC50", "result": "3090 nM"}
{"SMILES": "CC1=C(Cn2cncn2)C(=O)c2ccccc2C1=O", "system": "adult worms", "setting": "25 µM, 72 h", "endpoint": "killing", "result": "54.6%"}
{"SMILES": "COc1ccc(Nc2cnnc3ccc(-c4ccc(S(=O)(=O)N5CCN(C)CC5)cc4)cc23)cc1", "system": "adult worms", "setting": "10 µM, 48 h", "scale": "direction not given", "endpoint": "phenotypic severity score", "result": 0}
{"SMILES": "CC(C)(C)CNc1nc(-c2cccs2)nc(Cl)c1-c1c(F)cc(F)cc1F", "test": "worm motility", "system": "adult worms ex vivo", "setting": "24 h", "endpoint": "EC50", "result": "< 300 nM"}
{"SMILES": "CC1=C(Cc2cn(CCOS(=O)(=O)c3ccc(C)cc3)nn2)C(=O)c2ccccc2C1=O", "system": "adult worms", "setting": "25 µM, 72 h", "endpoint": "killing", "result": "48%"}
{"SMILES": "CC1(CNc2nc(-c3cccs3)nc(Cl)c2-c2c(F)cc(O)cc2F)COC1", "test": "worm motility", "system": "adult worms ex vivo", "setting": "24 h", "endpoint": "EC50", "result": "< 300 nM"}
{"SMILES": "CN1CCN(S(=O)(=O)c2ccc(-c3ccc4nncc(Nc5cnccn5)c4c3)cc2)CC1", "system": "adult worms", "setting": "10 µM, 48 h", "scale": "direction not given", "endpoint": "phenotypic severity score", "result": 0}
{"SMILES": "CC1=C(Cn2ccnn2)C(=O)c2ccccc2C1=O", "system": "NTS", "scale": "baseline: L6 CC50 over IC50", "endpoint": "selectivity index", "result": 5.9}
{"SMILES": "Cc1ccc(Nc2cnnc3ccc(-c4ccc(N5CCCN(C)CC5)cc4)cc23)cn1", "system": "adult worms", "setting": "10 µM, 5 h", "scale": "direction not given", "endpoint": "phenotypic severity score", "result": 1}
{"SMILES": "CCC(F)(F)c1cc(N2C(=O)NC(C)(C)C2=O)ccc1F", "system": "NMRI mice, infected", "setting": "oral, 100 mg/kg single dose, 21 days post-treatment, treated day 49 post-infection", "endpoint": "worm burden reduction", "result": "26%"}
{"SMILES": "CN1CCN(S(=O)(=O)c2ccc(-c3ccc4c(Nc5cnccn5)cnnc4c3)cc2)CC1", "system": "adult worms", "setting": "10 µM, 24 h", "scale": "direction not given", "endpoint": "phenotypic severity score", "result": 0}
{"SMILES": "O=C(C1CCCCC1)N1CC(=O)N2CCc3ccccc3C2C1 (racemic)", "system": "infected mice", "setting": "intraperitoneal, 50 mg/kg 1 times daily for 3 days, 72 h", "endpoint": "worm burden reduction", "result": "68%"}
{"SMILES": "COc1ccc(Nc2cnnc3cc(-c4cnc(N5CCN(C)CC5)nc4)ccc23)cc1", "system": "adult worms", "setting": "10 µM, 1 h", "scale": "direction not given", "endpoint": "phenotypic severity score", "result": 0}
{"SMILES": "CC1=C(Cc2cn(CCO)nn2)C(=O)c2ccccc2C1=O", "system": "adult worms", "setting": "10 µM, 48 h", "endpoint": "killing", "result": "51%"}
{"note": "Some of these lines once more:"}
{"SMILES": "CC1=C(Cn2cc(C(C)(C)O)nn2)C(=O)c2ccccc2C1=O", "system": "adult worms", "setting": "25 µM, 72 h", "endpoint": "killing", "result": "45.1%"}
{"SMILES": "CC(C)[C@@H](C)Nc1nc(-c2cccs2)nc(Cl)c1-c1c(F)cc(C#N)cc1F", "test": "worm motility", "system": "adult worms ex vivo", "setting": "24 h", "endpoint": "EC50", "result": "1020 nM"}
{"SMILES": "CC1=C(Cn2cc(CN3CCN(C(=O)OC(C)(C)C)CC3)nn2)C(=O)c2ccccc2C1=O", "system": "adult worms", "setting": "10 µM, 24 h", "endpoint": "killing", "result": "41.6%"}
{"SMILES": "Fc1cc(F)c(-c2c(Cl)nc(-c3cccs3)nc2NC2COC2)c(F)c1", "test": "worm motility", "system": "adult worms ex vivo", "setting": "24 h", "endpoint": "EC50", "result": "1820 nM"}
